Published values gathered from unrelated publications.
A part holds a random share of what one study measured.
UniProt Q9HBY8, sequence (whole entry, looked up): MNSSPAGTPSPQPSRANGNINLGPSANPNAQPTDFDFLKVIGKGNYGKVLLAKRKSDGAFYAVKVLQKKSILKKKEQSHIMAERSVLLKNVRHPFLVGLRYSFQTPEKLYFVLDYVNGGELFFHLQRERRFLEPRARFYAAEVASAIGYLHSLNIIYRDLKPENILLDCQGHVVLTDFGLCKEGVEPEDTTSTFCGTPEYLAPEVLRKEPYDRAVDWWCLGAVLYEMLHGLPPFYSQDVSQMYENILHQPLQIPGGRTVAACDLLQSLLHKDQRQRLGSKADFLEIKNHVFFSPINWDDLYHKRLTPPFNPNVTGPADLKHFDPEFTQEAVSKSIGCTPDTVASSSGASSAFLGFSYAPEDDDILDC
UniProt Q6XUX3, sequence (whole entry, looked up): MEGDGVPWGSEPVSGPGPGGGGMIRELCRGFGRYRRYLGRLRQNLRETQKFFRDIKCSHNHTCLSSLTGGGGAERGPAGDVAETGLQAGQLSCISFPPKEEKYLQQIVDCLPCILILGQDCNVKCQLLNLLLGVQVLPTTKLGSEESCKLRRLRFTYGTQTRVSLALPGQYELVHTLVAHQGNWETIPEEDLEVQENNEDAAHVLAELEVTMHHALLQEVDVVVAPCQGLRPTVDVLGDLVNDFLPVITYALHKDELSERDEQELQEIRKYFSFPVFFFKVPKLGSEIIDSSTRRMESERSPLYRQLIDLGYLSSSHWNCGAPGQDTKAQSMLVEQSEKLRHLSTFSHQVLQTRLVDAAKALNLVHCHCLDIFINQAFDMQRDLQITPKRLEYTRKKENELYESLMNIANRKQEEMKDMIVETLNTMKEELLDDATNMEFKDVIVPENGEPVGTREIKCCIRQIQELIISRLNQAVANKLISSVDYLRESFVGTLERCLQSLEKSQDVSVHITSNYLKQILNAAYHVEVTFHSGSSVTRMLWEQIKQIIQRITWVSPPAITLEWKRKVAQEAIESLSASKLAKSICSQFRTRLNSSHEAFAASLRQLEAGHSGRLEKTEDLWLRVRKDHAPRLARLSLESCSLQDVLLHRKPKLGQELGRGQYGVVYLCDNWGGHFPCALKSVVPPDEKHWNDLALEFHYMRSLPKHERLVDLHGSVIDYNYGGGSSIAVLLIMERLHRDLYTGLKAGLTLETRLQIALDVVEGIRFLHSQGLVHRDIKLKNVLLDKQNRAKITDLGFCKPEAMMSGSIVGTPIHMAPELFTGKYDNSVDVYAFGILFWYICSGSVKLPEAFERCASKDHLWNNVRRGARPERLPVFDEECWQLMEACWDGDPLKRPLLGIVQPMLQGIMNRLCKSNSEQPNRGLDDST
UniProt P07947, sequence (whole entry, looked up): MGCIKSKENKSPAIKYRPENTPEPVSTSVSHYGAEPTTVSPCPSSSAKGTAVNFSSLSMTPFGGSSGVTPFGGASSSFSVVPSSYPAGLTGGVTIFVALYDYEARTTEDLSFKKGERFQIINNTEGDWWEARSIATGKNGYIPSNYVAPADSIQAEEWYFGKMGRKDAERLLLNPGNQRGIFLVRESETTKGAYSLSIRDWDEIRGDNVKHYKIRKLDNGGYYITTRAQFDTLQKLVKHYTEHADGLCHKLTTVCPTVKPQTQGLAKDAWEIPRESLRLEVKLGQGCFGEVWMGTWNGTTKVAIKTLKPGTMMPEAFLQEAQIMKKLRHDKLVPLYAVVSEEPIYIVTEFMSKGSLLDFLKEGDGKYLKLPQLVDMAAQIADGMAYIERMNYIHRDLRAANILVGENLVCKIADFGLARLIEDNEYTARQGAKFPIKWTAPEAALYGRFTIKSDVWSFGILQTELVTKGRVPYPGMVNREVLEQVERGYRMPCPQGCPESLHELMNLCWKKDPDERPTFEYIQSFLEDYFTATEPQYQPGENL
UniProt Q9P286, sequence (whole entry, looked up): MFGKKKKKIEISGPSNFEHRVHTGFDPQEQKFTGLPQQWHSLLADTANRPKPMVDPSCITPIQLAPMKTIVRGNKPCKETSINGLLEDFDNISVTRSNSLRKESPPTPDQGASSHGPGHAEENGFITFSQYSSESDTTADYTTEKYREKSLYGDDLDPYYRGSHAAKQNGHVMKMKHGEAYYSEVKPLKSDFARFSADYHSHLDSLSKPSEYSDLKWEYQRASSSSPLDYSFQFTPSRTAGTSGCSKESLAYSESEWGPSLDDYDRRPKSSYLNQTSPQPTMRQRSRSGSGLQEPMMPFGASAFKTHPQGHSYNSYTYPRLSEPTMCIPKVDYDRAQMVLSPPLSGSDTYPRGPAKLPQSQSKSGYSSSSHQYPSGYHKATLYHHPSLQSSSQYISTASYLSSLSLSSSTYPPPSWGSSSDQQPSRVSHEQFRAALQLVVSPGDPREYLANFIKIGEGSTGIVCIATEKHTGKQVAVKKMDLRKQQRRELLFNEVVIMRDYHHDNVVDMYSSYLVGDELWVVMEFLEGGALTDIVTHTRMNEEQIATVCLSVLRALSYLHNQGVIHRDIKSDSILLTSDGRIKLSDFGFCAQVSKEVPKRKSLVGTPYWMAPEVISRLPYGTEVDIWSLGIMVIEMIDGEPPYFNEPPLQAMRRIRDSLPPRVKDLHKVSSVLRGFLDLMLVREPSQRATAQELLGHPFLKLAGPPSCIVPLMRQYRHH
UniProt P51812, sequence (whole entry, looked up): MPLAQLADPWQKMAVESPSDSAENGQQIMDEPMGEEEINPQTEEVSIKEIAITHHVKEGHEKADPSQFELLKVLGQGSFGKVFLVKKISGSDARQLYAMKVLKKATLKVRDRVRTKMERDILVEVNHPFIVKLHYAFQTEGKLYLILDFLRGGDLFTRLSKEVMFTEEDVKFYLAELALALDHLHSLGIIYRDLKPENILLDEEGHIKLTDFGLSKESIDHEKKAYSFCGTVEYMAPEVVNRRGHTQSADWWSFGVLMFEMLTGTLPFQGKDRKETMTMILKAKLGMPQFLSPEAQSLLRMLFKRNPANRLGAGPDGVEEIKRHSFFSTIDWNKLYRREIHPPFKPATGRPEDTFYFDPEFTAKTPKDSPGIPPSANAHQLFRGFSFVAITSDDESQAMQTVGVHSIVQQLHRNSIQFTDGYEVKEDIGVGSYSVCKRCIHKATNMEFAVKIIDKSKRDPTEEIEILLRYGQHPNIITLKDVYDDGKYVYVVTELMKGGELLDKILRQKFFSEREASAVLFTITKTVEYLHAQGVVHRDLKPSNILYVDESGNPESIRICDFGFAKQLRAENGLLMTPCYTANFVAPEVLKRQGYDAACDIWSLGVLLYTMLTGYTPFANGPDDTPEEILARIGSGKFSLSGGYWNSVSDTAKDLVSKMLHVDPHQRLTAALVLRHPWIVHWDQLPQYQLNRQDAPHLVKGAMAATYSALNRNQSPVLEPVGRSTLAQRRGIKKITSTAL
UniProt Q8N5S9, sequence (whole entry, looked up): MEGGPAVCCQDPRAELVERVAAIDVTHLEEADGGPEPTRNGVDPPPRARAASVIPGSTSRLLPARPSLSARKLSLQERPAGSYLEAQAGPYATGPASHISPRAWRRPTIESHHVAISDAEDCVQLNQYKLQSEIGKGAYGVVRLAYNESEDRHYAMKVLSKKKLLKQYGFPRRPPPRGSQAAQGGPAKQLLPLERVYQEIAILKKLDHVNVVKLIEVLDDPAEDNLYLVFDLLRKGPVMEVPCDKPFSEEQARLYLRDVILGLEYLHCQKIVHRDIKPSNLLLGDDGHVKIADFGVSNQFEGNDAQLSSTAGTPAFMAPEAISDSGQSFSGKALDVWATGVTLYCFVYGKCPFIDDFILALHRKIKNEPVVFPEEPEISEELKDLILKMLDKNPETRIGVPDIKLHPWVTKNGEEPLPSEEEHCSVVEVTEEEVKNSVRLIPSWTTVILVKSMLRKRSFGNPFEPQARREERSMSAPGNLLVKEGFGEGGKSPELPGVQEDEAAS
UniProt P48730, sequence (whole entry, looked up): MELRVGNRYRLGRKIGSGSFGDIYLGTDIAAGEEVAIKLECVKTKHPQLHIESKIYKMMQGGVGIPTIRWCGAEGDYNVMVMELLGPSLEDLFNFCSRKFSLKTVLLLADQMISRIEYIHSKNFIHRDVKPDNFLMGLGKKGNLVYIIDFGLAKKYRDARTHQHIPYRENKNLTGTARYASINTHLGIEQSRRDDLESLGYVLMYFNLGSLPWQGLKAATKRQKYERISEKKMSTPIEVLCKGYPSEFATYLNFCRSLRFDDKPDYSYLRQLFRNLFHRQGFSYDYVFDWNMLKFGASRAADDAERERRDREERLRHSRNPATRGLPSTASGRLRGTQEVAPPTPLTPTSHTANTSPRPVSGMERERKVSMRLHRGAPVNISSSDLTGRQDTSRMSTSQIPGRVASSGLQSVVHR
UniProt Q14680, sequence (whole entry, looked up): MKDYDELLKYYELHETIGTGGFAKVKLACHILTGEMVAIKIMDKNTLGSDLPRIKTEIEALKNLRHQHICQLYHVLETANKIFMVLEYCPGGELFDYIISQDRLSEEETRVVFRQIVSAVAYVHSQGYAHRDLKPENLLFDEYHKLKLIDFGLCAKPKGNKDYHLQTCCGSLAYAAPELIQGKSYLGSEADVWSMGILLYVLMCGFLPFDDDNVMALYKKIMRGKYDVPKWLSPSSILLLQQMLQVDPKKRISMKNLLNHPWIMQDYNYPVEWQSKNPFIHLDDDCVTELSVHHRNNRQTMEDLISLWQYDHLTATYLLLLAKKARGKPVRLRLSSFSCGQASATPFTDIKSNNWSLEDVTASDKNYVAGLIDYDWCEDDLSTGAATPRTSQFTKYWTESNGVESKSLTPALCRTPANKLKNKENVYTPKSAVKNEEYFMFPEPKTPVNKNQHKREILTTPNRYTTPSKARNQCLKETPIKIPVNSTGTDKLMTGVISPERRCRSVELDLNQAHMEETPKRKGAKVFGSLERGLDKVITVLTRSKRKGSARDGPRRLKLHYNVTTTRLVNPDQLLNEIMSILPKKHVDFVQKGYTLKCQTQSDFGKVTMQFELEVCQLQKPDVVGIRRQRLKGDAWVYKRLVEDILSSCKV

Study 1 — read-out: cell-free assay; technique: competition with immobilised ligand; concentration: 1 µM; measurement: remaining binding
SMILES: O=C1NC(c2ccccn2)Sc2ccccc21 (stereo not shown)
Dual serine/threonine and tyrosine protein kinase (DSTYK, Homo sapiens, UniProt Q6XUX3): 92%
MAP kinase-activated protein kinase 5 (MAPKAPK5, Homo sapiens, UniProt Q8IW41): 73%
Leukocyte tyrosine kinase receptor (LTK, Homo sapiens, UniProt P29376): 89%
Tyrosine-protein kinase ABL1, phosphorylated (ABL1, Homo sapiens, UniProt P00519, Y253F): 69%
Serine/threonine-protein kinase TNNI3K (TNNI3K, Homo sapiens, UniProt Q59H18): 87%
Serine/threonine-protein kinase PAK 1 (PAK1, Homo sapiens, UniProt Q13153): 96%
Serine/threonine-protein kinase Sgk2 (SGK2, Homo sapiens, UniProt Q9HBY8): 72%

Study 2 — Substance: HSPD1 (Homo sapiens, UniProt P10809); technique: cross-linking MS; sample: cells; together with: BSPNO; measurement: cross-linked residues
MDH2 (Homo sapiens, UniProt P40926): K133 to K157
KIF20B (Homo sapiens, UniProt Q96Q89): K58 to K1326
CACNA1S (Homo sapiens, UniProt Q13698): K58 to K162
ZMYM1 (Homo sapiens, UniProt Q5SVZ6): K58 to K551

Study 3 — Structure (SMILES): CCN1/C(=C/C(C)=O)Sc2ccc(OC)cc21; read-out: enzyme activity; action: inhibitor; concentration: 0.5 µM; reference: control; measurement: remaining activity
Serine/threonine-protein kinase PAK 5 (PAK5, Homo sapiens, UniProt Q9P286): 84.7%
Tyrosine-protein kinase Yes (YES1, Homo sapiens, UniProt P07947): 91.8%
Serine/threonine-protein kinase MARK1 (MARK1, Homo sapiens, UniProt Q9P0L2): 91%
Casein kinase I isoform delta (CSNK1D, Homo sapiens, UniProt P48730): 54.2%
Mitogen-activated protein kinase kinase kinase 20 (MAP3K20, Homo sapiens, UniProt Q9NYL2): 91%
Serine/threonine-protein kinase Sgk2 (SGK2, Homo sapiens, UniProt Q9HBY8): 93.7%
Cyclin-dependent kinase 2, with cyclin E (CDK2, Homo sapiens, UniProt P24941): 87.7%
Tyrosine-protein kinase Tec (TEC, Homo sapiens, UniProt P42680): 116%
Dual specificity protein kinase CLK1 (CLK1, Homo sapiens, UniProt P49759): 41.8%
Receptor tyrosine-protein kinase erbB-2 (ERBB2, Homo sapiens, UniProt P04626): 99.9%
Ribosomal protein S6 kinase alpha-3 (RPS6KA3, Homo sapiens, UniProt P51812): 102%
Insulin-like growth factor 1 receptor (IGF1R, Homo sapiens, UniProt P08069): 98.3%
Protein kinase C theta type (PRKCQ, Homo sapiens, UniProt Q04759): 95.9%
Calcium/calmodulin-dependent protein kinase kinase 1 (CAMKK1, Homo sapiens, UniProt Q8N5S9): 105%
Calcium/calmodulin-dependent protein kinase type 1 (CAMK1, Homo sapiens, UniProt Q14012): 88.5%
Maternal embryonic leucine zipper kinase (MELK, Homo sapiens, UniProt Q14680): 94.6%
Serine/threonine-protein kinase PAK 4 (PAK4, Homo sapiens, UniProt O96013): 108%

Study 4 — technique: RNA Bind-n-Seq; form: RNA; sample: in vitro; concentration: 200 nM; notes: whole 134-nt RNA, ends assumed; together with: 150 mM KCl; reference: input library; direction: higher = stronger binding; measurement: log2 enrichment
Target: Fragile X messenger ribonucleoprotein 1, C-terminal low-complexity region (Fmr1, Mus musculus, UniProt P35922)
Constant ends, left off below: GGGAGUUCUACAGUCCGACGAUC … UGGAAUUCUCGGGUGUCAAGG
GCAGGAAGUAAAAACAAAUGGAAAUGCUUCGGAUAGUGGCAGGGGUGAGGGUUGCUAAGGAAAGGGUGGGAUGGGAGUGGGUAAAGAGUU: 0.256
AAGUCCUGUGCUACACAUCGUAUGUACCGAAUCGGUUUUGGGGUUUUGGUUUUGGGGAAAGUAUUAUGUUACGCCGUUCGGAUCUGCACU: -0.229
GUCCUGUGCUACACAUCGUAUGUACCGAAUCGGGGUUUUGGGGUUUUGGGUUUUGGGGAAAGUAUUAUGUUACGCCGUUCGGAUCUGCAC: 0.597
CCUGUGCUACACAUCGUAUGUACCGAAUCGGUUUUUUUGGGGUUUUUUUGGUUUUUUUGGAAAGUAUUAUGUUACGCCGUUCGGAUCUGC: -0.268
CUGUGCUACACAUCGUAUGUACCGAAUCGGGGUUUUUUUGGGGUUUGGGGAAAAAAAGGGGAAAGUAUUAUGUUACGCCGUUCGGAUCUG: -0.432
UGUGCUACACAUCGUAUGUACCGAAUCGGGGCCCCCCCGGGGCCCCCCCGGGGCCCCCCCGGGAAAGUAUUAUGUUACGCCGUUCGGAUC: -1.67
UGAAGCGAGAAGCUGCCCUACCCCCAGUGAGCCCCCUGAAGGCGGCUCUCUCUGAGGAGGAGUUAGAGAAGAAAUCCAAGGCUAUCAUUG: -0.761
AAGUCCUGUGCUACACAUCGUAUGUACCGAAUCGGGUUUUUUUGGGAGGGUUUGGGAAAGUAUUAUGUUACGCCGUUCGGAUCUGCACUU: 0.497

Mixed results
CCOC(=O)[C@@H]1CSCC(=O)N[C@@H](CC)C(=O)N(C)[C@@H](C)C(=O)N[C@H](CC(C)C)C(=O)N2CCC[C@H]2C(=O)N(CC(C)C)CC(=O)N[C@@H](CC(C)C)C(=O)N(C)[C@H](C)C(=O)N[C@@H](CC(C)C)C(=O)N1C
logD (hydrocarbon/water): 0.628
